Measured values pooled from the literature.
Parts stem from different laboratories: compare values within a part only.

Block 1 — technique: RNA Bind-n-Seq; molecule type: RNA; matrix: in vitro; concentration: 200 nM; setting: whole 134-nt RNA, ends assumed; with: 150 mM KCl; relative to: input library; direction: higher = stronger binding
Target: Fragile X messenger ribonucleoprotein 1, C-terminal low-complexity region (Fmr1, Mus musculus, UniProt P35922)
Constant ends, left off below: GGGAGUUCUACAGUCCGACGAUC … UGGAAUUCUCGGGUGUCAAGG
Strand | log2 enrichment
GCAGGAAGUAAAAACAAAUGGAAAUGCUUCGGAUAGUGGCAGGGGUGGGGGUUGCUAAAGAAAGGGUGGGAUGGGAGUGGGUAAAGAGUU | 0.0509
CAAGUCCUGUGCUACACAUCGUAUGUACCGAAUCGGUUUGGUUUUUUUGGAAAGGAAAGUAUUAUGUUACGCCGUUCGGAUCUGCACUUC | -0.6
UCAAGUCCUGUGCUACACAUCGUAUGUACCGAAUCGGGGAAGGGAAGGAAGGGGAAAGUAUUAUGUUACGCCGUUCGGAUCUGCACUUCC | 0.634
GCAGGAAGUAAAAACAAAUGGAAAUGGUUCGGAUAGUGGCAGGGGUGGGGGUUGCUAAGGAAAGGGUGGGAUGGGAGUGGGUAAAGAGUU | 0.177
CCUCAAGUCCUGUGCUACACAUCGUAUGUACCGAAUCGGGGCGGGCGGCGGGAAAGUAUUAUGUUACGCCGUUCGGAUCUGCACUUCCAG | 0.52
UCCUGUGCUACACAUCGUAUGUACCGAAUCGGGUUUUUGGGAAAAAGGGAAAAAAAGGGAAAGUAUUAUGUUACGCCGUUCGGAUCUGCA | -0.16
CCUGUGCUACACAUCGUAUGUACCGAAUCGGGUUUUUUUGGGAAAAAAAGGGAAAAAGGGAAAGUAUUAUGUUACGCCGUUCGGAUCUGC | -1.01
ACCAUGCAGGUGGGCAUCUAUGGGAAGUGGGGCAAGGGGGGGAUAGGGAGGGGGGUAACACUUUGGGAACAGGUGGUCCCAGGUCGUUUC | 0.843
UCCUGUGCUACACAUCGUAUGUACCGAAUCGGUUUUUUUGGUUUUUUUGGUUUUUUUGGGAAAGUAUUAUGUUACGCCGUUCGGAUCUGC | -0.123
UCCUGUGCUACACAUCGUAUGUACCGAAUCGGGGCCCCCGGGGCCCCCGGGCCCCCGGGGAAAGUAUUAUGUUACGCCGUUCGGAUCUGC | -0.918
UCCUGUGCUACACAUCGUAUGUACCGAAUCAAAGUGUGUGUGUAAAGUGUGUGUGUAAAAAAGUAUUAUGUUACGCCGUUCGGAUCUGCA | -0.102
UCCUGUGCUACACAUCGUAUGUACCGAAUCGGGGUUUUUUGGGUUUUUUGGUUUUUUGGAAAGUAUUAUGUUACGCCGUUCGGAUCUGCA | -0.001
CACAGACAACACGCACCCACACAGACACAGAGGGAAGGGGUUGGGAUGGGGACUGGGUGCACAGCAGGGCGGGGUAGGACCCCAGCCCCU | 1.38
AAGUCCUGUGCUACACAUCGUAUGUACCGAAUCGGUUUUGGGUUUUGGGUUUUGGGGAAAGUAUUAUGUUACGCCGUUCGGAUCUGCACU | -0.183

Block 2 — technique: protein binding microarray; molecule type: double-stranded DNA, one strand shown; matrix: in vitro; concentration: not given; relative to: not given; direction: higher = stronger binding
Target: Histone acetyltransferase KAT6A, winged helix 1, GST fusion (KAT6A, Homo sapiens, UniProt Q92794, residues 1-85)
Setting: 8-mer, flanks averaged, mean of 2 arrays, mostly near background
Construct (chain): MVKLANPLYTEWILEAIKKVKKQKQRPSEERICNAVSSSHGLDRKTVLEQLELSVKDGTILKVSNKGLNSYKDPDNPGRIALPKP
Strand | E-score
ACCAGACA | -0.298
TATCCGAA | 0.0505
CCATTAGC | -0.0489
CGACTTAC | 0.0422
CGGCATGA | 0.296
AGACAGCG | 0.182
CATCACCC | 0.0553
CGATTTTA | 0.0635
ACTATCTA | -0.0472
GTATCCTA | -0.0725
CAGTCAAC | -0.148
GTAACTCA | -0.123
CGGCTACA | 0.253
ACTGTTGG | -0.289
GATTTGCA | -0.184
ACGTTAAC | -0.0595
ATAGAAGG | 0.0469
GACTTAGA | -0.3
GGAGCACC | -0.0157
AAAAGATA | -0.0824
AGCCCAAT | -0.226
GTCTCGCA | -0.0121
GGCTGCTA | -0.0152

Block 3 — technique: RNA Bind-n-Seq; molecule type: RNA; matrix: in vitro; concentration: not given; relative to: input RNA pool; direction: higher = stronger binding
Target: RING finger protein unkempt homolog, zinc fingers 1-6, GST-SBP tag (UNK, Homo sapiens, UniProt Q9C0B0, residues 30-357)
Setting: RNA with constant flanks, human-mouse chimeric sites, ends assumed
Constant ends, left off below: GGGAGUUCUACAGUCCGACGAUC … CAACAGAGGAUUGAGCAUCA
Target sequence (chain): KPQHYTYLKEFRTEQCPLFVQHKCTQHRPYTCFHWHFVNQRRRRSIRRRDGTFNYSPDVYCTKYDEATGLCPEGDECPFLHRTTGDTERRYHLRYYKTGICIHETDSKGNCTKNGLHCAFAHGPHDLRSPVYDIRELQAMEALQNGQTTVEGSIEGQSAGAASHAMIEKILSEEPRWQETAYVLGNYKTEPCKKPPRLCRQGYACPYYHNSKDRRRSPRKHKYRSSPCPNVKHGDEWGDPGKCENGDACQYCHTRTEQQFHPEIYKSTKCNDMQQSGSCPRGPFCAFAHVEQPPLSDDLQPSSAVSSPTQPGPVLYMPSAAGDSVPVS
Strand | bound/input enrichment [ratio]
UGUAGUUGAUCCCCUGCUCAUUUUUCUCUUUUCUUUCUUUCCUUUAGGAAAAGCCUAAAGAUUAGACUGUAAGAAAAACAGAAGCCAUGUUUCGAAGACCUGUGUUACAGGUAUUUCGUC | 0.0322
UUCAAAGAAAAGGGCAGCUGUGUCAUUUCAUAAGUAACUCUGGGGGAGGGAAAUUCUGUUCUUUUGUUUUUAGUUUUCCCAGAUAAAGCCAAAGUGUGUGUUGAAGAACUGAGAAAAAAU | 0.375
GAUAAGAAAAGCUUGUUGGAGACCCGCUUGCAUGUCACUGGUAGAGAACUGAGGUCCCAAAUAGCUGAAACUUUCGGAUUUCAAGAAAAUUAUAUCAAGAUCGUAAUAAAUAAGAAACAG | 1.1
CGGAGCCCCUCCCUCUCACAGGCCCAAGAUAUAACCCACCAGUGCCUUUUGUCUUCCCGUUAGCUUUGUCAAUCACGCCUGUCCUCUCACGCCCACACCAAGUGCCCAAAGUGGGGAGGG | 8.69
AAAUCGUGUGUGUCCAAUAUUGAAAGUGCUUUAUCUACACUCCAAUAUGUAAGCAGCAUAGUAGUUUCUUUAGAGAAUAGGUCAGCCAUUGUAAAGUACAAUGCAAGCUUAGUCACUCCA | 10.2
ACCAUUUUCGCGGUUCAGGCUUUGUGUGUAGUUCACUUACGGUAUUAAAUUAUUAUUCUGCUUAGCUUAUAAUAAGGAUAAUUGCAUUUAAAGAGGUGAUCACUGAAUGUUAUUGUUCUU | 9.26
AAUUUCCUGUCAUACUUUUUAGACAUUGCCAUAGGUAUUACAGAGCACCUGGCCACAUUCUAGUUUUGUGUUAUUUCUCAGCUAUGGAUAUGAUCAAAUGAGAACACUGCUUAACUAAUG | 1.14
AUGGAACAUUUCGAUGCGUCACUCAGUACCUAUUUCAAGGCCUUCCUAGGCCCUCGAGAUACAAGAGUCAAAGGAUGGUUUCUUCUGGACAAUUACAUCCCUACGUUUGUCUGUUCUGUU | 0.102
CUGUGUGUGCUGAAUAAAUGGCUUGUAAAGAAGUUUUUCCAAGCUGUAACCCAUGCUUCCCUUAGAGUUGCUGCAAAAUGUUCUUCCUGAUAUUGAUUUUAUUUGUUCUGACUCUCCCUC | 0.707
CAGCCUCAGAGCCCAGACUUCCUGGAUAUCACCAACCCUAAAGCGGUAUUAGAAAAUGCAUUGAGAAACUUCGCCUGUCUGACGACUGGAGAUGUGAUUGCUAUCAACUAUAAUGAAAAG | 0.568
UCAACAGACAACAUCAAAUACCAGCCUAAAGGGGGGCAGGUACAAAUUGUUACCAAGAAAAUAGACCUAAGCCAUGUGACAUCCAAAUGUGGCUCUCUAAAGAACAUCCGCCACAGGCCA | 0.746

Block 4 — technique: RNA Bind-n-Seq; molecule type: RNA; matrix: in vitro; concentration: 365 nM; relative to: no-protein control; direction: higher = stronger binding
Target: RNA binding protein fox-1 homolog 2, RRM domain, GST-SBP tag (RBFOX2, Homo sapiens, UniProt O43251-10, residues 100-194)
Setting: natural RNA segment, single round, ends assumed
Constant ends, left off below: GGGAGUUCUACAGUCCGACGAUC … UGGAAUUCUCGGGUGCCAA
Target sequence (chain): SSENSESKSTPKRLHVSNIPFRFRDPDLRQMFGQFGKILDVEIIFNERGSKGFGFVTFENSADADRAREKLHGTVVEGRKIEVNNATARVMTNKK
Strand | RBNS enrichment (R)
AUUCAAAUGGGAUUGAUUAGUCAAGUAACUUGAGACCUCACAGUAAUCUUCACACUUAACCUUAGACACCUAUGCAGUCAUGUUGGGAGCAGGUUACAAUGUUACUUCAG | 0.282
AUUCUAUCACAGCACAGCAGGUCGAGAGUUAACACCUGGAUGACAUGGUGGUGGAUAUUUGGGUCUGUGAAAUCUGAAAAAAACAAAGGUCUAUUCGGAUUGCAUAGGGG | 1.01
AGCUUCACUCAGGACCACCUUGGGGUGUAACAGAGGGUGUCAUCCGGCCCCUGGCCCUGGGGAACAUCCCUAGAGGCCCAGAAUGGGGGUUGCUGGGUACCCCAUGCCCU | 0.36
CCACAAGUCUUGGCCCUUAACCUUUAUCUUUCUUCCUGUCCUCUCACCUAGAUUGUAAGCUCCCUGGGCCAGGACUUCAGCCUGCCUCCGAGGGUCCCCUGUGGCACCUA | 1.19
UGGUGAGGCAAGAAGGAUAUACAUUAUUUUAGAAUCAUUUACUAUUUAAAUGAGACAAUCAUAUUAUUUUAGAAUCAUUUAUUUUAAAUGAGACAAUCAUUUUAAGUUUU | 0.766
CCAGCACCAAGCAAGUGCCUGGCACAUAGUCUGUGCCCUUAACAUUUGUAGAAAGGAGCUCACCAGCUCUGUCAGUGUUUAGUUUCUUCAUCUAUUAAACAGGGUUGGUU | 0.327
UGCUUACAUCUAGAUUAUCCAGCACAAUCAUAAAGUGAAUGACAAACCCUUUGAAUGAAAUUGUGGCACAAAAUCUGUUCAGGUUGGUGUACCGUGUAAAGUGGGGAUGG | 0.835
CUCCUCCUUUGGCAUCCAUUUUUCCAAAGAAGAGUCGAGUCCUCUGAGGUCUGUGCUUGAAAGCCGUCCGAAGGCAUUCUUGUUAGCUUUGCUUUUCUCCCCAUAUCCCA | 0.299
GCCCAGCUGCACUUGUUGUUGAUACAGCAUAAGUGAAUCAUGGGCAUUUCCCUGAGAGCAGUGGGAGAGGCCCUCUGAGUUGGAAGUUGAGCUCCACCUCCUUUCCAAGU | 0.449
GAACCACCCAUCCCAGCUCAGCCCCAAGAACCAACCAAAGAGCCAGUCAAAAGCAAGCUGGGUUUGCAGCCCACUCCAGCCCAUGGCCUGUUGCCCAGCUCUGUAGACAU | 0.394
GCUCUGUCAAUUAGAGGUGGAAUGGAGACCAACCUCCUUCCUGCCUCCUGGCUGUUCUUGAAACAGCUUAGAGCGAUUCUAUGAAAAUGUAAUAAAAAAUAAAAAUAAAA | 0.441
UCUACUGCCCUCCCCUCCCCUAUCCAAGUAGCAGUUAAGUUCCAUCCAAAUACGUGGGACUCAAAGACUCCUAGUCAGCUGUAGUUCUGGAGGCUCUGAAUGUCUAACUU | 0.407

For quick reference, copied from above (block 3):
Strand | bound/input enrichment [ratio]
CAGCCUCAGAGCCCAGACUUCCUGGAUAUCACCAACCCUAAAGCGGUAUUAGAAAAUGCAUUGAGAAACUUCGCCUGUCUGACGACUGGAGAUGUGAUUGCUAUCAACUAUAAUGAAAAG | 0.568
CGGAGCCCCUCCCUCUCACAGGCCCAAGAUAUAACCCACCAGUGCCUUUUGUCUUCCCGUUAGCUUUGUCAAUCACGCCUGUCCUCUCACGCCCACACCAAGUGCCCAAAGUGGGGAGGG | 8.69
UCAACAGACAACAUCAAAUACCAGCCUAAAGGGGGGCAGGUACAAAUUGUUACCAAGAAAAUAGACCUAAGCCAUGUGACAUCCAAAUGUGGCUCUCUAAAGAACAUCCGCCACAGGCCA | 0.746
CUGUGUGUGCUGAAUAAAUGGCUUGUAAAGAAGUUUUUCCAAGCUGUAACCCAUGCUUCCCUUAGAGUUGCUGCAAAAUGUUCUUCCUGAUAUUGAUUUUAUUUGUUCUGACUCUCCCUC | 0.707
AAAUCGUGUGUGUCCAAUAUUGAAAGUGCUUUAUCUACACUCCAAUAUGUAAGCAGCAUAGUAGUUUCUUUAGAGAAUAGGUCAGCCAUUGUAAAGUACAAUGCAAGCUUAGUCACUCCA | 10.2
GAUAAGAAAAGCUUGUUGGAGACCCGCUUGCAUGUCACUGGUAGAGAACUGAGGUCCCAAAUAGCUGAAACUUUCGGAUUUCAAGAAAAUUAUAUCAAGAUCGUAAUAAAUAAGAAACAG | 1.1
ACCAUUUUCGCGGUUCAGGCUUUGUGUGUAGUUCACUUACGGUAUUAAAUUAUUAUUCUGCUUAGCUUAUAAUAAGGAUAAUUGCAUUUAAAGAGGUGAUCACUGAAUGUUAUUGUUCUU | 9.26
AAUUUCCUGUCAUACUUUUUAGACAUUGCCAUAGGUAUUACAGAGCACCUGGCCACAUUCUAGUUUUGUGUUAUUUCUCAGCUAUGGAUAUGAUCAAAUGAGAACACUGCUUAACUAAUG | 1.14
AUGGAACAUUUCGAUGCGUCACUCAGUACCUAUUUCAAGGCCUUCCUAGGCCCUCGAGAUACAAGAGUCAAAGGAUGGUUUCUUCUGGACAAUUACAUCCCUACGUUUGUCUGUUCUGUU | 0.102
UUCAAAGAAAAGGGCAGCUGUGUCAUUUCAUAAGUAACUCUGGGGGAGGGAAAUUCUGUUCUUUUGUUUUUAGUUUUCCCAGAUAAAGCCAAAGUGUGUGUUGAAGAACUGAGAAAAAAU | 0.375
